Published values of several laboratories.
Values joined by “and” are separate records of one study, mostly repeats; a detail may differ. Numbers after ± are the reported error.

Substance	test	system	setting	scale	measurement	result
CN(C)C/C=C/C(=O)Nc1cc2c(Nc3ccc(F)c(Cl)c3)ncnc2cc1O[C@H]1CCOC1		human, plasma	oral, 40 mg once daily, day 27, geometric mean		Cmax at steady state	29 ng/mL
CCCCC(=O)N(Cc1ccc(-c2ccccc2-c2nnn[nH]2)cc1)[C@H](C(=O)O)C(C)C		male human, plasma	oral, dose not given, day 8, adjusted geometric mean, added: sildenafil		Cmax at steady state	3040 ng/mL
CC(C)c1nc(N(C)S(C)(=O)=O)nc(-c2ccc(F)cc2)c1/C=C/[C@@H](O)C[C@@H](O)CC(=O)O		human, plasma	oral, dose not given, added: finerenone 40 mg steady state simultaneous	reference: compound alone	Cmax increase	11%
Nc1ccn([C@@H]2O[C@H](CO)[C@@H](O)C2(F)F)c(=O)n1	LC-MS/MS, item: lonafarnib	human, plasma	100 or 200 mg, multiple dose	reference: lonafarnib alone	Cmax and AUC	no effect
CCOC(=O)[C@H](C)C[C@@H](Cc1ccc(-c2ccccc2)cc1)NC(=O)CCC(=O)O		male human, plasma	oral, 400 mg, day 7, alone, adjusted geometric mean		Cmax at steady state	2310 ng/mL
COc1ccc(-n2nc(C(N)=O)c3c2C(=O)N(c2ccc(N4CCCCC4=O)cc2)CC3)cc1		human, male	oral, 50 mg	reference: Japanese over Caucasian	Cmax and AUC ratio	84 to 117%
CCC1=C(C)CN(C(=O)NCCc2ccc(S(=O)(=O)NC(=O)N[C@H]3CC[C@H](C)CC3)cc2)C1=O		human, plasma	oral, 4 mg once daily, added: evogliptin 5 mg		Cmax steady state	351 ± 97.4 ng/mL
CCn1c(C(=O)c2cc(C)cc(C#N)c2)c(C(C)C)c(=O)[nH]c1=O		healthy humans, plasma	oral, 300 mg once daily, 7 days		Cmax at steady state	706 ± 192 ng/mL
CCOc1c([C@H](C)n2nc(C)c3c(N)ncnc32)cc(Cl)c(F)c1[C@@H]1CNC(=O)C1		healthy fasted humans, plasma	oral, 10 mg		Cmax geometric mean	0.777 µM
COc1cccc(-c2ccc(NC(=O)C3=C(C(=O)O)CCC3)c(F)c2)c1		male healthy human, plasma	oral, 50 mg daily, day 13-14, all subjects	reference: day 0-1	Cmax accumulation ratio	1.79
CCCC(CCC)C(=O)O	regression tree, item: chills	human, plasma	intravenous		Cmax breakpoint	> 738000 ng/mL
COC(=O)c1ccc2c(c1)NC(=O)/C2=C(\Nc1ccc(N(C)C(=O)CN2CCN(C)CC2)cc1)c1ccccc1		human, healthy, plasma	oral, 50 mg, added: ketoconazole 400 mg	reference: alone	Cmax ratio	180%
COCCCCn1c(C(=O)N(CC(C)C)[C@@H]2CNC[C@H](C(=O)N3CCOCC3)C2)nc2ccccc21		non-elderly human, plasma	oral, 160 mg once daily	reference: later day over first day	Cmax accumulation ratio	101%
O=CC[C@@H](O)[C@H](O)[C@H](O)CO	HPLC-fluorescence	human patients, plasma	oral, 30 mg/kg/day, cycle 2		Cmax	224 ± 12.6 µM
CNC(=O)c1ccc(-c2cnc3ncc(Cc4ccc5ncccc5c4)n3n2)cc1F		human, severe hepatic impairment (Child-Pugh C), plasma	oral, 200 mg single dose		Cmax (geometric mean)	1770 ng/mL
CCOc1cc([C@@H](CS(C)(=O)=O)N2C(=O)c3cccc(NC(C)=O)c3C2=O)ccc1OC		healthy human, male, plasma	oral, 20 mg single dose, added: ketoconazole multiple doses		Cmax	247 ng/mL
coproporphyrin III	item: compound endogenous	human, plasma	added: rosuvastatin and finerenone	reference: with over without finerenone	Cmax ratio	89.1%
CC[C@@H]1C(=O)N(C)c2cnc(Nc3ccc(C(=O)N[C@H]4CC[C@H](N5CCN(CC6CC6)CC5)CC4)cc3OC)nc2N1C(C)C		human, plasma	intravenous infusion, 50 mg over 2 h, first infusion		Cmax geometric mean	106 ng/mL
[2H]C([2H])([2H])Oc1cc2c(cc1OC([2H])([2H])[2H])C1CC(=O)C(CC(C)C)CN1CC2 (centres unmarked)	item: total (α+β)-HTBZ	human	15 mg single oral dose, added: high-fat meal	reference: fasted	Cmax increase with food	~50%
CC[C@H](C)C(=O)O[C@H]1C[C@H](O)C=C2C=C[C@H](C)[C@H](CC[C@@H](O)C[C@@H](O)CC(=O)O)[C@H]21		human fed, plasma	oral, 20 mg single dose, added: ziritaxestat 600 mg once daily	reference: with over without ziritaxestat	Cmax ratio	2.4
CCCC[C@H](NC(C)=O)C(=O)N[C@H]1CCC(=O)NC[C@@H](C(=O)N[C@@H](Cc2c[nH]c3ccccc23)C(N)=O)NC(=O)[C@H](CCCNC(=N)N)NC(=O)[C@@H](Cc2ccccc2)NC(=O)[C@H](Cc2c[nH]cn2)NC1=O		healthy human, both sexes, plasma	subcutaneous, 1.0 mg once daily, day 1, arithmetic mean		Cmax	23 ng/mL
COc1ccc(-c2ccc3c(N4CCOC[C@@H]4C)nc(N4CCOC[C@@H]4C)nc3n2)cc1CO		human, plasma	oral, 20 mg twice daily, oral solution		Cmax at steady state	26.2 to 38.9 ng/mL
CC(C)c1nc(N(C)S(C)(=O)=O)nc(-c2ccc(F)cc2)c1/C=C/[C@@H](O)C[C@@H](O)CC(=O)O		humans, plasma	oral, dose not given, added: fenebrutinib 200 mg twice daily	reference: with over without fenebrutinib	Cmax ratio	~4.99 fold and 4.99 fold
COC(=O)c1ccc2c(c1)NC(=O)/C2=C(\Nc1ccc(N(C)C(=O)CN2CCN(C)CC2)cc1)c1ccccc1		human mild liver impairment, plasma	oral, 200 mg twice daily, geometric mean		Cmax steady state	127 ng/mL
O=C(NC[C@H]1CN(c2ccc(N3CCOCC3=O)cc2)C(=O)O1)c1ccc(Cl)s1		human, mild renal impairment, plasma	oral, 10 mg, added: erythromycin at steady state	reference: same subjects, compound alone	Cmax increase	~26%
O=c1[nH]c(=O)c2c[nH]nc2[nH]1		human, male, plasma	oral, 10 mg, added: allopurinol 300 mg	reference: combination over alone	Cmax ratio	67.9%
